Results gathered from unrelated publications.
Protocols differ between the studies behind these lines. Numbers after ± are the reported error.

CC[C@H](C)[C@H](NC(=O)[C@H](Cc1c[nH]c2ccccc12)NC(=O)[C@H](CCCNC(=N)N)NC(=O)[C@H](CCCCN)NC(=O)[C@H](CC(C)C)NC(=O)[C@H](CC(=O)O)NC(=O)[C@H](Cc1ccccc1)NC(=O)[C@H](C)NC(=O)[C@H](Cc1ccc(O)cc1)NC(=O)[C@H](CC(N)=O)NC(=O)[C@H](Cc1ccc(O)cc1)NC(=O)[C@H](CCCNC(=N)N)NC(=O)[C@H](Cc1ccc(O)cc1)NC(=O)[C@H](Cc1ccc(O)cc1)NC(=O)[C@@H](NC(=O)[C@H](CC(C)C)NC(=O)[C@H](C)NC(=O)[C@H](CC(N)=O)NC(=O)[C@H](Cc1ccc(O)cc1)NC(C)=O)[C@@H](C)CC)C(=O)N[C@@H](Cc1ccc(O)cc1)C(=O)N[C@@H](CC(C)C)C(N)=O  α4β7− CCR9+ cells (measured: HA-51 tetramer; antigen-experienced tetramer+ CD4 T cells, healthy adults, HLA-DRB1*0101; dose not given): 8.33%
CCN(Cc1ccccc1)C(=O)CCc1nc(CN2CCN(C(=O)Cc3ccc(OC)c(OC)c3)CC2)no1  action potential amplitude (current clamp; L4-L6 DRG neurons, rat CCI model; 10 µM, added: 500 pA current injection): 96.6 ± 1.01 mV
Cc1cc(O)cc(C)c1CC(N)C(=O)NC1CCNc2c(C(=O)O)cc(Cc3ccccc3)cc21 (centres unmarked)  antinociception (warm water tail withdrawal; male C57BL/6 mice; intraperitoneal, 10 mg/kg): inactive
CCS(=O)(=O)Nc1cc(-c2cn(C)c3c(=O)[nH]ccc23)cc2c1ccn2C(C)(c1ccccn1)c1ccccn1  median survival (KPPC mice, aggressive PDAC; intraperitoneal, 5 mg/kg, 552 h, daily, late intervention): 50 days
COC[C@@H](NC(C)=O)C(=O)NCc1ccc(OCc2ccc(Cl)cc2)cc1  licking time (formalin test, phase II; mouse; ip, 7.0 mg/kg; relative to: vehicle): 103%
COc1cc2c(cc1OC)C(=O)C(=Cc1ccc(N3CC[N+](C)(C)CC3)cc1)C2  escape latency (Morris water maze; Wistar rat, amyloid beta-induced Alzheimer model; oral, dose not given, 21 days): decreased
Cc1ccc(/C=C/C(=O)O)cc1-c1cc2c(cc1C)C(C)(C)CCC2(C)C  log2 fold change (RNA sequencing, measured: Acot1 mRNA; rat, brain; dose not given, 24 h, single dose; relative to: vehicle): 0.41
CC[C@H](C)[C@H](NC(=O)[C@H](Cc1ccccc1)NC(=O)[C@H](CCC(N)=O)NC(=O)[C@H](CCSC)NC(=O)[C@@H](NC(=O)[C@H](CCC(N)=O)NC(=O)[C@H](CCCCN)NC(=O)[C@H](Cc1ccc(O)cc1)NC(=O)[C@H](Cc1ccccc1)NC(=O)[C@H](CCCCN)NC(=O)[C@H](CCCCN)NC(=O)[C@@H](NC(=O)[C@H](Cc1ccccc1)NC(=O)[C@@H]1CCCN1C(=O)[C@H](Cc1c[nH]c2ccccc12)NC(=O)CNC(=O)[C@H](Cc1ccccc1)NC(=O)[C@H](CCCCN)NC(=O)[C@H](C)NC(=O)[C@@H](NC(=O)[C@H](CC(C)C)NC(=O)[C@H](CCCCN)NC(=O)[C@H](C)NC(=O)[C@H](CCCNC(=N)N)NC(=O)[C@H](C)NC(=O)CNC(=O)[C@@H](N)CCSC)C(C)C)[C@@H](C)CC)[C@@H](C)CC)C(=O)NCC(=O)N[C@@H](CCC(N)=O)C(=O)NCC(=O)N[C@@H](Cc1c[nH]c2ccccc12)C(=O)N[C@H](C(=O)N[C@H](C(=O)N[C@@H](CC(=O)O)C(=O)N[C@@H](CCC(N)=O)C(=O)N[C@H](C(=O)N[C@@H](CCC(=O)O)C(=O)N[C@@H](CCCCN)C(=O)N[C@@H](Cc1c[nH]c2ccccc12)C(=O)N[C@@H](CC(C)C)C(=O)N[C@@H](CCCCN)C(=O)N[C@@H](CCCNC(=N)N)C(=O)N[C@@H](Cc1c[nH]cn1)C(=O)O)[C@@H](C)CC)[C@@H](C)CC)[C@@H](C)O  calcein release (PG/PE 1:1 liposomes; MIC; relative to: Triton X-100): 24%
COc1cc(C(Oc2ccc(C[C@H](N)C(=O)N[C@H](C)C(=O)NCC(=O)N(C)[C@@H](Cc3ccccc3)C(=O)NCCO)cc2)C(=O)O)c([N+](=O)[O-])cc1OC (some centres unmarked)  IPSC suppression fraction (inhibitory synaptic transmission, whole-cell voltage clamp; mouse hippocampal slices CA1; 1 µM, added: 355 nm flash 5 ms 84 mW): 0.61 ± 0.05
CCNC(=O)c1cc(Cc2ccccc2)cc2c1NCCC2NC(=O)C(N)Cc1c(C)cc(O)cc1C (centres unmarked)  antinociception (warm water tail withdrawal; male C57BL/6 mice; intraperitoneal, 10 mg/kg): inactive
CC[C@H](C)[C@H](NC(=O)[C@H](CCCCN)NC(=O)CNC(=O)[C@H](CC(C)C)NC(=O)[C@@H](NC(=O)[C@H](C)NC(=O)[C@H](CCCCN)NC(=O)CNC(=O)[C@H](C)NC(=O)CNC(=O)[C@H](CCCCN)NC(=O)[C@H](CCSC)NC(=O)[C@H](CCCCN)NC(=O)[C@@H](NC(=O)[C@H](Cc1c[nH]c2ccccc12)NC(=O)[C@H](CC(C)C)NC(=O)[C@H](CCC(=O)O)NC(=O)[C@H](CCCCN)NC(=O)[C@H](CC(C)C)NC(=O)[C@@H](N)CC(C)C)[C@@H](C)O)C(C)C)C(=O)N[C@@H](CCCCN)C(=O)NCC(=O)N[C@@H](CC(C)C)C(=O)N[C@@H](CC(C)C)C(=O)O  calcein leakage (calcein release; PC-containing vesicles, 200 µM lipid; 15 µM, 1 h; relative to: Triton X-100): ~15%
CC(C)C[C@@H]1NC(=O)[C@H](C(C)C)NC(=O)[C@H](CO)NC(=O)CNC(=O)CNC(=O)[C@H](CCCNC(=N)N)NC(=O)[C@@H]2CCCN2C(=O)[C@@H](NC(=O)CC[C@H](NC(=O)c2ccc(N(C)Cc3cnc4nc(N)nc(N)c4n3)cc2)C(=O)O)C(C)(C)SSC[C@@H](C(=O)O)NC(=O)CNC(=O)[C@H]([C@@H](C)O)NC(=O)[C@H](C(C)C)NC1=O  spleen weight (rat adjuvant arthritis; iv, 1 mg/kg once daily, day 14): 0.403 ± 0.0202 g
CC[C@H](C)[C@H](NC(=O)[C@H](CCCNC(=N)N)NC(=O)[C@H](CCC(N)=O)NC(=O)[C@H](CC(=O)O)NC(=O)[C@H](CC(C)C)NC(=O)[C@H](CC(C)C)NC(=O)[C@H](CC(N)=O)NC(=O)[C@H](Cc1ccccc1)NC(=O)[C@H](CC(=O)O)NC(=O)[C@@H](NC(=O)[C@@H](NC(=O)[C@H](CC(N)=O)NC(=O)CNC(=O)[C@H](CO)NC(C)=O)C(C)C)[C@@H](C)CC)C(=O)N[C@H](C(=O)N[C@@H](Cc1c[nH]c2ccccc12)C(=O)N[C@@H](CCC(N)=O)C(=O)N[C@@H](CC(N)=O)C(=O)N[C@@H](Cc1c[nH]c2ccccc12)C(=O)N[C@@H](Cc1ccc(O)cc1)C(=O)N[C@@H](C)C(N)=O)[C@@H](C)CC  α4β7− CCR9− cells (measured: HA-51 tetramer; antigen-experienced tetramer+ CD4 T cells, healthy adults, HLA-DRB1*0101; dose not given): 26.9%
CS(C)(=O)=Nc1ccc(-c2ccc(-c3nc4cc(O[C@@H]5CO[C@H]6[C@@H]5OC[C@H]6O)[nH]c4cc3F)cc2)cc1  plasma triglycerides (ob/ob mouse, AMLN diet NASH model; oral, 5 mg/kg daily, 8 weeks; relative to: vehicle): no effect
CC(C)C[C@H](NC(=O)[C@H](CCCCN)NC(=O)[C@H](CCCNC(=N)N)NC(=O)[C@@H](CC(C)C)NC(=O)[C@H](Cc1c[nH]c2ccccc12)NC(=O)[C@H](CC(=O)O)NC(=O)[C@H](CCCCN)NC(=O)[C@@H](CC(C)C)NC(=O)[C@H](CCCNC(=N)N)NC(=O)[C@H](CCC(N)=O)NC(=O)[C@@H](NC(=O)[C@@H](CC(C)C)NC(=O)[C@H](CCCNC(=N)N)NC(=O)[C@H](CCCCN)NC(=O)[C@H](Cc1ccc(C(C)(C)C)cc1)NC(=O)CN)C(C)C)C(=O)N[C@H](C(N)=O)C(C)C  IL-10 level (ELISA; C57BL/6 mouse, catheter infection, peri-catheter tissue; dose not given, 3 d; relative to: untreated infected): increased
CCCCCCCCCCCCCCCC(=O)N[C@@H](CCC(=O)NCCOCCOCCC(=O)NCCOCCOCCC(=O)NCCCC[C@H](NC(=O)[C@H](CC(=O)O)NC(=O)[C@H](CC(C)C)NC(=O)[C@H](Cc1ccc(O)cc1)NC(=O)[C@H](CCCCN)NC(=O)[C@H](CO)NC(=O)[C@H](Cc1ccc(O)cc1)NC(=O)[C@H](CC(=O)O)NC(=O)[C@H](CO)NC(=O)[C@@H](NC(=O)[C@H](Cc1ccccc1)NC(=O)[C@@H](NC(=O)CNC(=O)[C@H](CCC(N)=O)NC(=O)[C@@H](CO)NC(=O)[C@@H](N)Cc1c[nH]cn1)[C@@H](C)O)[C@@H](C)O)C(=O)N[C@@H](CCCNC(=N)N)C(=O)N[C@@H](CCCNC(=N)N)C(=O)N[C@@H](C)C(=O)N[C@@H](CCC(N)=O)C(=O)N[C@@H](CC(=O)O)C(=O)N[C@@H](Cc1ccccc1)C(=O)N[C@H](C(=O)N[C@@H](CCC(N)=O)C(=O)N[C@@H](Cc1c[nH]c2ccccc12)C(=O)N[C@@H](CC(C)C)C(=O)N[C@@H](CC(C)C)C(=O)N[C@@H](CC(N)=O)C(=O)N[C@H](C(=O)NCC(=O)NCC(=O)N1CCC[C@H]1C(=O)N[C@@H](CO)C(=O)N[C@@H](CO)C(=O)NCC(=O)N[C@@H](C)C(=O)N1CCC[C@H]1C(=O)N1CCC[C@H]1C(=O)N1CCC[C@H]1C(=O)N[C@@H](CO)C(N)=O)[C@@H](C)O)C(C)C)C(=O)O  liver granuloma area (Schistosoma japonicum-infected mice; 80 µg/kg/day, 14 days, after praziquantel treatment): decreased
CC(C)C[C@@H]1NC(=O)[C@@H](Cc2c[nH]c3ccccc23)NC(=O)[C@H](CCCNC(=N)N)NC(=O)[C@@H](CCC(=O)O)NC(=O)[C@H](CCC(N)=O)NC(=O)[C@@H](CCC(=O)O)NC(=O)[C@H](CCCNC(=N)N)NC(=O)[C@@H](Cc2c[nH]c3ccccc23)NC1=O  pre-beta HDL concentration (ELISA; human plasma; concentration not given): 81 ± 11 µg/mL

Some of these lines once more:
CC(C)C[C@@H]1NC(=O)[C@@H](Cc2c[nH]c3ccccc23)NC(=O)[C@H](CCCNC(=N)N)NC(=O)[C@@H](CCC(=O)O)NC(=O)[C@H](CCC(N)=O)NC(=O)[C@@H](CCC(=O)O)NC(=O)[C@H](CCCNC(=N)N)NC(=O)[C@@H](Cc2c[nH]c3ccccc23)NC1=O  pre-beta HDL concentration (ELISA; human plasma; concentration not given): 81 ± 11 µg/mL
